Experimental data of several laboratories.
A part holds a random share of what one study measured.

Set 1
Target: Histone acetyltransferase KAT6A, winged helix 1, GST fusion (KAT6A, Homo sapiens, UniProt Q92794, residues 1-85)
Technique: protein binding microarray
Form: double-stranded DNA, one strand shown
Matrix: in vitro
Tested at: not given
Notes: 8-mer, flanks averaged, mean of 2 arrays, mostly near background
Reference: not given
Reading: higher = stronger binding
Residues (chain): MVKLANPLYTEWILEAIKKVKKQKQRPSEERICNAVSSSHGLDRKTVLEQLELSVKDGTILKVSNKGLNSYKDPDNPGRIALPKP
The E-score of `ACTCACCG` is reported as 0.0943.
`ACAGTATA` gave an E-score of -0.0449.
With `TAATCAGA` the E-score was -0.0642.
For `CGATATGA`, the E-score was 0.0371.
With `ATCCATGG` the E-score was -0.0036.
`AAGTGCGA` gave an E-score of 0.0648.
`TTTGCAAA` has an E-score of -0.296.
`CTACAAGC` has an E-score of -0.00605.

Set 2
Target: Replicase polyprotein 1ab, polymerase (rep, Severe acute respiratory syndrome coronavirus 2, UniProt P0DTD1)
Read-out: enzyme activity
Action: inhibitor
Tested at: 20 µM
The inhibition of `C/C(=C\C(=O)OCCCCCCCCC(=O)O)C[C@@H]1OC[C@H](C[C@@H]2O[C@H]2[C@@H](C)[C@H](C)O)[C@@H](O)[C@H]1O` is reported as 4.14%.
The inhibition of `Cn1c(=O)c2c(ncn2CCOC(=O)C(C)(C)Oc2ccc(Cl)cc2)n(C)c1=O` is reported as -4.14%.
`c1ccc(CNCc2ccc(CN3CCCNCCNCCCNCC3)cc2)nc1` gave an inhibition of 1.21%.
`C=C[C@H]1CN2CC[C@H]1C[C@@H]2[C@@H](O)c1ccnc2ccccc12` gave an inhibition of -3.31%.
`CC[C@H](C)[C@H](NC(=O)[C@H](Cc1ccc(O)cc1)NC(=O)[C@@H](NC(=O)[C@H](CCCNC(=N)N)NC(=O)[C@@H](N)CC(=O)O)C(C)C)C(=O)N[C@@H](Cc1c[nH]cn1)C(=O)N1CCC[C@H]1C(=O)O` gave an inhibition of -13.8%.
With `CN(C)C(=N)NC(=N)N` the inhibition was -5.44%.
With `O=C(c1c2ccccc2cc2ccccc12)N1CCC(N2CCC[C@@H](C(=O)N3CCOCC3)C2)CC1` the inhibition was 2.54%.
For `Cc1cc(CCC[C@H](CC(=O)NO)C(=O)N[C@H](C(=O)N[C@H](C)c2ccccc2)C(C)(C)C)ccc1-c1ccccc1`, the inhibition was -2.02%.
For `CC(C)C[C@H](NC(=O)[C@@H](Cc1c[nH]c2ccccc12)NC(=O)[C@H](Cc1ccc(O)cc1)NC(=O)[C@H](CO)NC(=O)[C@H](Cc1c[nH]c2ccccc12)NC(=O)[C@H](Cc1cnc[nH]1)NC(=O)[C@@H]1CCC(=O)N1)C(=O)N[C@@H](CCCN=C(N)N)C(=O)N1CCC[C@H]1C(=O)NCC(N)=O`, the inhibition was 3.9%.
For `CN1C[C@@H]2c3ccccc3Oc3ccc(Cl)cc3[C@H]2C1` (racemic), the inhibition was -5.23%.
For `Nc1ccn([C@@H]2O[C@@](CO)(CCl)[C@@H](O)[C@H]2F)c(=O)n1`, the inhibition was -0.79%.
The inhibition of `Oc1c(Cl)cc(Cl)c(Cl)c1Cc1c(O)c(Cl)cc(Cl)c1Cl` is reported as 103%.
For `O=C(NCCO)c1cccc(-c2cc(Nc3ccc(OC(F)(F)F)cc3)ncn2)c1`, the inhibition was 6.05%.
`O=c1c2ccccc2nc2n1CCc1c-2[nH]c2ccccc12` gave an inhibition of -2.36%.
For `CC1=C(/C=C/C(C)=C/C=C/C(C)=C/C(=O)O)C(C)(C)CCC1`, the inhibition was -14.5%.
With `CC1=CC(=O)c2ccccc2C1=O` the inhibition was 10.3%.
For `CCn1cc(C(=O)O)c(=O)c2cc(F)c(N3CCNCC3)nc21`, the inhibition was -0.05%.
`Cc1ccccc1N=Nc1ccc(NC(=O)c2ccnn2C)c(C)c1` gave an inhibition of 0.1%.

Set 3
Target: Interferon regulatory factor 7, full length, phosphomimetic (IRF7, Homo sapiens, UniProt Q92985, residues 1-503, S471D/S472D/S475D/S476D/S477D/S483D/S484D/S487D)
Technique: protein-binding microarray
Form: double-stranded DNA, one strand shown
Matrix: in vitro
Tested at: 2200 nM top
Notes: 60-bp whole probe
With: salmon DNA 0.4 mg/ml
Reference: random background probes
Reading: higher = stronger binding
Constant ends, left off below: GCCTAGCAC … GTCTTGATTCGCTTGACGCTGCTG
Residues (chain): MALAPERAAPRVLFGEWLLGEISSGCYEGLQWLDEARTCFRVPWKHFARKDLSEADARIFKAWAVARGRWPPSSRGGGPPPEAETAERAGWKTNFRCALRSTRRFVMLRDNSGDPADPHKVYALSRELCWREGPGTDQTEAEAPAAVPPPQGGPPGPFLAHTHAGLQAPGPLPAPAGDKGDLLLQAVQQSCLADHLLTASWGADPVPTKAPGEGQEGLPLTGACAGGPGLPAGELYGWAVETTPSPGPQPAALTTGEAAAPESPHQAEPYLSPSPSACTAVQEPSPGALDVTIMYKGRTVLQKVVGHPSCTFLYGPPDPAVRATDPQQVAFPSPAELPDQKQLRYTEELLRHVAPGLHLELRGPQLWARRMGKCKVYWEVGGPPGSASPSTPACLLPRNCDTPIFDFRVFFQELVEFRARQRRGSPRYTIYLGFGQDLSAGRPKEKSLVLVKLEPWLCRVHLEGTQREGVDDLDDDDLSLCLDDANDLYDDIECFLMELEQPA
`TTAGGTTTCGGACTAGGTTAGTGCTAG` — result for “fitted relative affinity”: 2.62 z-score.
`TCAAACCCCATTCTCAGACTGTGCTAG`: “fitted relative affinity” 0.853 z-score.
Under “fitted relative affinity”, `GACGATTTCGGGTTTCGACACGTGCTA` is recorded as 5.05 z-score.
`AACCACATAGGAAGAACAACGTGCTAG` — result for “fitted relative affinity”: -0.319 z-score.
`TACGGTTTCCTTCTCCTGACGTGCTAG`: “fitted relative affinity” 3.22 z-score.
`TTAGATTTCAGTTCCTATTAGTGCTAG`: “fitted relative affinity” 2.1 z-score.
For `GACGGACTGCGGTATCGGGACGTGCTA`, “fitted relative affinity” read -0.772 z-score.
`TCAGGTTCCCATTCCAGACTGTGCTAG`: “fitted relative affinity” 2.1 z-score.

Further values, each from its own experiment
Tested at: 10 µM
With `NC(CO)C(=O)NNCc1ccc(O)c(O)c1O` (stereo not drawn) the inhibition was 9% (Replicase polyprotein 1ab, 3C-like proteinase (rep, Middle East respiratory syndrome-related coronavirus, UniProt K9N7C7); enzyme activity).
The inhibition of `CC(=O)O/N=C1\C(=O)N(Cc2cc(Cl)ccc2Cl)c2ccc(Cl)cc21` is reported as 3.6% (SARS-CoV-2; cytopathic effect; Vero E6).
